{"data": "Results collected from several papers", "note": "Lines come from different studies, so protocols differ. “And” joins repeats or separate records; there may be more than shown. ± marks the error that the study gave."}
{"SMILES": "CNCc1ccc2c(c1)C[C@H](CNC(=N)N)[C@H]2NC(=O)C(=O)Nc1ccc(Cl)c(F)c1", "organism": "HIV-1", "assay": "pseudovirus infection, Env pseudovirus neutralisation", "test system": "TZM-bl, clade C T/F isolate 2A2", "measurement": "IC80", "value": "> 100000 nM"}
{"SMILES": "C[N+](C)(C)CCO.O=C([O-])C(Cl)Cl", "organism": "Amaranthus retroflexus", "assay": "herbicidal activity", "setting": "15 mg/mL, 21 days, post-emergence greenhouse", "measurement": "inhibition", "value": "0%"}
{"SMILES": "COC1C=COC2(C)Oc3c(C)c(O)c4c(c3C2=O)C2=NC3(CCN(CC(C)C)CC3)NC2=C(NC(=O)C(C)=CC=CC(C)C(O)C(C)C(O)C(C)C(OC(=O)Nc2cccnn2)C1C)C4=O (centres unmarked)", "organism": "Mycobacteroides abscessus", "assay": "bacterial growth", "test system": "subsp. massiliense clinical isolate", "setting": "slow grower", "measurement": "IC90", "value": "14 nM"}
{"SMILES": "CCN(CC)CC#CCNc1ccnc2cc(Cl)ccc12", "organism": "Plasmodium falciparum", "assay": "parasite growth, SYBR Green I", "test system": "3D7", "setting": "mean of experiments", "measurement": "IC50", "value": "42.7 nM"}
{"SMILES": "Cc1cccc2c1N(C(=O)n1ccnn1)CC2", "organism": "Arabidopsis thaliana", "test system": "kai2-2 mutant, seedlings", "setting": "5 µM, with: (±)-GR24 1 µM", "measurement": "hypocotyl length", "value": "2.84 mm"}
{"SMILES": "Cc1ccc(S(=O)(=O)n2cc3c4c2C(=O)C(N)=CC4=NCC3)cc1", "organism": "Babesia divergens", "assay": "parasite growth, SYBR Green", "setting": "60 h, blood stage", "measurement": "IC50", "value": "597 nM"}
{"SMILES": "CCCCNCCO.O=C(O)C(Cl)Cl", "organism": "Eclipta prostrata", "setting": "15 mg/mL, 21 days, post-emergence, greenhouse", "measurement": "herbicidal inhibition", "value": "0%"}
{"SMILES": "Fc1ccc2c(c1)c1nc3ccc(Br)cc3c-1cn2Cc1cn(-c2ccccc2I)nn1", "organism": "Giardia duodenalis", "assay": "UHPLC-Q-TOF-MS, refers to: PC(O-16:0/2:0)", "test system": "trophozoites", "setting": "IC50, 0.1757 h", "scale": "relative to: 0.25% DMSO", "measurement": "fold change", "value": 1.74}
{"SMILES": "Cc1cc(Cl)cc(S(C)=NC#N)c1NC(=O)c1cc(Br)nn1-c1ncccc1Cl (centres unmarked)", "organism": "Spodoptera litura", "test system": "Brassica oleracea field plot", "setting": "50 ppm, 168 h, 10% wettable powder", "measurement": "larval viability", "value": "17.1% and 20% and 14.3%"}
{"SMILES": "CC(C)(C)NCC(SS(=O)(=O)O)c1ccccc1 (centres unmarked)", "organism": "Schistosoma mansoni", "assay": "perfusion day 44", "test system": "infected Swiss Webster mice", "setting": "600 mg/kg single dose, 1056 h, dosed day 1 post-infection", "scale": "relative to: vehicle control", "measurement": "liver weight decrease", "value": "17%"}
{"SMILES": "O=C1C(NCCc2ccc(O)cc2)=CC2=NCCc3c(Br)[nH]c1c32", "organism": "Babesia divergens", "assay": "parasite growth, SYBR Green", "setting": "60 h, blood stage", "measurement": "IC50", "value": "2130 nM"}
{"SMILES": "Cc1c(CN(C)C(=O)/C=C/c2cnc3c(c2)CC(N)C(=O)N3)oc2ccccc12 (centres unmarked)", "organism": "Escherichia coli", "assay": "broth microdilution", "test system": "AR-0346", "measurement": "MIC", "value": "8 µg/mL"}
{"SMILES": "CC(O)CNCC(C)O.O=C(O)C(Cl)Cl (centres unmarked)", "organism": "Eleusine indica", "setting": "15 mg/mL, 21 days, post-emergence, greenhouse", "measurement": "herbicidal inhibition", "value": "0%"}
{"SMILES": "C=C[C@]1(C)C[C@@H](OC(=O)CSc2ccc(NC(=O)c3ccco3)cc2)[C@]2(C)[C@H](C)CC[C@]3(CCC(=O)[C@H]32)[C@@H](C)[C@@H]1O", "organism": "Mycoplasma gallisepticum", "test system": "infected chickens, lung", "setting": "intramuscular, 10 mg/kg daily x3, 72 h", "scale": "relative to: 0 h", "measurement": "lung mycoplasma load reduction", "value": "0.687 log10 CFU/mL and 1.78 log10 CFU/mL and 1.15 log10 CFU/mL and 1.65 log10 CFU/mL and 1.16 log10 CFU/mL and 1.17 log10 CFU/mL and 1.56 log10 CFU/mL and 1.06 log10 CFU/mL"}
{"SMILES": "CNCc1ccc2c(c1)N(C(=O)OCc1c(F)c(F)c(F)c(F)c1F)[C@H](CNC(=N)N)[C@H]2NC(=O)C(=O)Nc1ccc(Cl)c(F)c1", "organism": "HIV-1", "assay": "viral infection", "test system": "TZM-bl, CRF02_AG 263-8 Env pseudovirus", "measurement": "IC80", "value": "1130 nM"}
{"SMILES": "C=C(NC(=O)c1csc(-c2nc3c(cc2O)-c2nc(cs2)C(=O)NC(C(C)O)C(=O)NC(=C(C)OC)c2nc(cs2)C(=O)NC2c4nc(cs4)C(=O)NC(COC(=O)c4c5c6c(cccc6n4O)COC(=O)C(OC4CC(C)(O)C(N(C)C)C(C)O4)C2OC5)c2nc-3cs2)n1)C(N)=O (centres unmarked)", "organism": "Streptococcus pneumoniae", "test system": "-25, immunocompromised mice, lung infection", "setting": "qd dosing", "measurement": "ED50", "value": "4.8 mg/kg"}
{"SMILES": "COC(=O)C1=CO[C@@H](C)[C@@H]2Cn3ccc4c5ccccc5nc-4c3C[C@H]12", "organism": "Plasmodium falciparum", "assay": "parasite growth", "test system": "3D7", "setting": "96 h, blood stage", "measurement": "IC50", "value": "212 nM"}
{"SMILES": "FC(F)(F)c1cccc(CNc2nc(NC3CCN(Cc4ccccc4)CC3)c3nc[nH]c3n2)c1", "organism": "Cryptococcus neoformans", "assay": "RNA-seq, refers to: MIOX (CNAG_06623)", "test system": "wild type", "setting": "48 µg/mL, 3 h", "scale": "relative to: untreated wild type", "measurement": "log2 fold change", "value": 2.15}
{"SMILES": "C[N+]1=C2C=C(NCCc3c[nH]c4ccccc34)C(=O)c3[nH]cc(c32)CC1", "organism": "Babesia divergens", "assay": "parasite growth, SYBR Green", "setting": "60 h, blood stage", "measurement": "IC50", "value": "1.6 nM"}
{"SMILES": "O=C(Nc1ccc([N+](=O)[O-])cc1Cl)c1cc(Cl)ccc1O", "organism": "human adenovirus C5", "assay": "progeny virus production", "test system": "A549", "setting": "72 h", "measurement": "EC50", "value": "1000 nM"}
{"SMILES": "CCOC(=O)c1ccc(OCCC2CCN(c3ccc(C)nn3)CC2)cc1", "organism": "Rhinovirus B", "assay": "viral replication, high-content imaging", "test system": "RV-B14", "measurement": "IC50", "value": "24 ± 25 nM"}
{"SMILES": "C[C@@H]1C(=O)O[C@@H](C)/C=C/C=C\\[C@@H](C)[C@@H]2C=C[C@@H]3C[C@@]4(C)O[C@H]4[C@@H](C)[C@H]3[C@@H]2C(=O)C(Cl)(Cl)C1=O", "organism": "Staphylococcus aureus", "test system": "MRSA clinical isolate", "setting": "resistant: OXA,CLI,ERY,GEN,TET", "measurement": "MIC", "value": "0.025 µg/mL"}
{"SMILES": "CCCCCCCCCC(=O)N[C@@H](Cc1c[nH]c2ccccc12)C(=O)N[C@H](CC(N)=O)C(=O)N[C@@H](CC(=O)O)C(=O)N[C@@H]1C(=O)NCC(=O)N[C@@H](CCCNC(=O)OC2/C=C/CCCCC2)C(=O)N[C@@H](CC(=O)O)C(=O)N[C@H](C)C(=O)N[C@@H](CC(=O)O)C(=O)NCC(=O)N[C@H](CO)C(=O)N[C@@H]([C@H](C)CC(=O)O)C(=O)N[C@@H](CC(=O)c2ccccc2N)C(=O)O[C@@H]1C (some centres unmarked)", "organism": "Staphylococcus aureus", "assay": "planktonic bacterial growth, isothermal microcalorimetry", "test system": "MSSA", "setting": "1.0 µg/mL, 24 h, 37 °C, with: TAG hydrogel", "measurement": "peak heat flow time", "value": "0 h"}
{"SMILES": "CN(Cc1ccc(C2(C(F)(F)F)CCC2)cc1)Cc1cccc2ccccc12", "organism": "Trichophyton mentagrophytes", "assay": "microbial growth, disc diffusion", "test system": "ATCC18748", "setting": "0.128 µg/mL, 72 h", "measurement": "inhibition zone", "value": "34.5 mm"}
{"SMILES": "O=C(Oc1cc(OC(=O)c2cc(O)c(O)c(O)c2)c2ccccc2c1)c1cc(O)c(O)c(O)c1", "organism": "herpes simplex virus 2", "assay": "transmission electron microscopy", "test system": "extracellular virus particles", "setting": "100 µM, 1 h, 37 °C", "measurement": "viral envelope disintegration", "value": "71.4%"}
{"SMILES": "COC1C=COC2(C)Oc3c(C)c(O)c4c(c3C2=O)C2=NC3(CCN(CC(C)C)CC3)NC2=C(NC(=O)C(C)=CC=CC(C)C(O)C(C)C(O)C(C)C(OC(=O)Nc2cnccn2)C1C)C4=O (centres unmarked)", "organism": "Mycobacteroides abscessus", "assay": "bacterial growth", "test system": "subsp. abscessus M9 clinical isolate", "measurement": "IC90", "value": "79 nM"}
{"note": "Excerpt of the above:"}
{"SMILES": "FC(F)(F)c1cccc(CNc2nc(NC3CCN(Cc4ccccc4)CC3)c3nc[nH]c3n2)c1", "organism": "Cryptococcus neoformans", "assay": "RNA-seq, refers to: MIOX (CNAG_06623)", "test system": "wild type", "setting": "48 µg/mL, 3 h", "scale": "relative to: untreated wild type", "measurement": "log2 fold change", "value": 2.15}
{"SMILES": "C[N+]1=C2C=C(NCCc3c[nH]c4ccccc34)C(=O)c3[nH]cc(c32)CC1", "organism": "Babesia divergens", "assay": "parasite growth, SYBR Green", "setting": "60 h, blood stage", "measurement": "IC50", "value": "1.6 nM"}
